Experimental data from different studies.
Each line is one published result; not all experiments were run side by side. “And” joins repeats or separate records; there may be more than shown. Numbers after ± are the reported error. Values after ≈ are worked out from the molar mass of the structure shown.
USP13 ZnF-UBD domain: Ubiquitin carboxyl-terminal hydrolase 13, ZnF-UBD domain (USP13, Homo sapiens, UniProt Q92995)
Sequence of UniProt Q92995 (whole entry, looked up): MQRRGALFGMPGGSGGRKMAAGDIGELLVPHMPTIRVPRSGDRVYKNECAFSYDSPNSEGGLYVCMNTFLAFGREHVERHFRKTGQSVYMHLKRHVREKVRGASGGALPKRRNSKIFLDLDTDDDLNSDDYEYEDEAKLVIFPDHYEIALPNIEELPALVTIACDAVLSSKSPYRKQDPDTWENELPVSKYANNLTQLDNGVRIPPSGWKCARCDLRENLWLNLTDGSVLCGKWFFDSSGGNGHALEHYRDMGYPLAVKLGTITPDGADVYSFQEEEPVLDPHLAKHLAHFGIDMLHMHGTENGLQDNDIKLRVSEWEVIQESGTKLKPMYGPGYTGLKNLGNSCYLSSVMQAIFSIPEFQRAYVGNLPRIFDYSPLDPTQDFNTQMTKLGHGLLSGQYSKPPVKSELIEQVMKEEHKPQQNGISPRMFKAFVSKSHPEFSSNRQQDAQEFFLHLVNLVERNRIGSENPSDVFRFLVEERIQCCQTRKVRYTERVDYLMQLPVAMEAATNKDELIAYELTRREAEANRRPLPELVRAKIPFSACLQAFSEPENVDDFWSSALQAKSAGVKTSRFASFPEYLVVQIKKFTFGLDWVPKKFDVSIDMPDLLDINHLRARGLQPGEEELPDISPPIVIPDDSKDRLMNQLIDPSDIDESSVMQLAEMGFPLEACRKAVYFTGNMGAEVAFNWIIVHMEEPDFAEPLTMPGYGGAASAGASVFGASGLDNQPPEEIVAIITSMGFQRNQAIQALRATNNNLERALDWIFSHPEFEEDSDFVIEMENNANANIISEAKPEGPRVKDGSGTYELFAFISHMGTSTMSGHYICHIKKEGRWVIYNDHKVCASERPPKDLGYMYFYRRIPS
Sequence of UniProt Q15349 (whole entry, looked up): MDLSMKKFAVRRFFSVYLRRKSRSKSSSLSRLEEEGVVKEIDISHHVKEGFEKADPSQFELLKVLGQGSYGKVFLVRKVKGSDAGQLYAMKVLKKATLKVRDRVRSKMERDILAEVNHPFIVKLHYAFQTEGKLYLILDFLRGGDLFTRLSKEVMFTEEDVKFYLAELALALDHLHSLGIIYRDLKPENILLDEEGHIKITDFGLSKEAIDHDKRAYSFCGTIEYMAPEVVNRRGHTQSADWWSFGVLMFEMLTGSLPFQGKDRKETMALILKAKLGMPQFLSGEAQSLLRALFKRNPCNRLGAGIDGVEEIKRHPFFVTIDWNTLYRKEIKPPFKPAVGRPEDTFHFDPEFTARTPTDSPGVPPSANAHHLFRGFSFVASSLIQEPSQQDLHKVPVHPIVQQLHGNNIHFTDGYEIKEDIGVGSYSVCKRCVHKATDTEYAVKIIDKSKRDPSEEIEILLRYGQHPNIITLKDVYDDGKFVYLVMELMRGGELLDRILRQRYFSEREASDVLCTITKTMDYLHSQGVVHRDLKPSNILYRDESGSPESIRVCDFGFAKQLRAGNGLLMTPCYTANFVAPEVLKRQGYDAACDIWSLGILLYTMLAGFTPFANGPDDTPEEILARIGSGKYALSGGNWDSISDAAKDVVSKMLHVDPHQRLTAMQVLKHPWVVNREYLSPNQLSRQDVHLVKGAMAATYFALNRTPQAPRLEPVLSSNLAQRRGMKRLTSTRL

Structure (SMILES) | tested on | test | test system | setting | scale | endpoint | value
CCCCN1CCCC[C@H]1C(=O)Nc1c(C)cccc1C | H+/organic cation antiporter | cell uptake | hCMEC/D3 |  |  | Vmax | 637 pmol/min/mg protein
c1ccc(-c2n[nH]cc2-c2ccnc3ccccc23)nc1 |  | kinase binding, competitor, MIB/MS competition, item: MKK2 | Candida albicans cell lysate | 100 nM | reference: DMSO | log2 fold change | 1.66
NC(=O)c1cnc2[nH]ccc2c1N[C@@H]1[C@@H]2CC3C[C@H]1C[C@@](O)(C3)C2 |  | flow cytometry | Japanese healthy men, blood | oral, 20 mg single dose, 24 h | reference: baseline | total memory T-cell change | -0.17%
CN1C2CCCC1CC(NC(=O)c1nn(C)c3ccccc13)C2 (centres unmarked) | H+/organic cation antiporter | cell uptake | hCMEC/D3 |  |  | Km | 43.4 µM
CC(=O)NC[C@H]1CN(c2ccc(N3CCOCC3)c(F)c2)C(=O)O1 | Streptococcus pyogenes | broth microdilution |  |  |  | MBC | 4 µg/mL (≈ 11.9 µM)
Cn1cc(-c2ccc(-c3cncc(Cl)c3N3CCC4(CCNC4=O)CC3)cc2)cn1 | COLO 205 | gene expression, microarray, item: NRP1 mRNA |  | concentration not given, 6 h | reference: untreated cells | log2 fold change | 2.74
CN[C@H](CC(C)C)C(=O)N[C@H]1C(=O)N[C@@H](CC(N)=O)C(=O)N[C@H]2C(=O)N[C@H]3C(=O)N[C@H](C(=O)N[C@H](C(=O)O)c4cc(O)cc(O)c4-c4cc3ccc4O)[C@H](O)c3ccc(c(Cl)c3)Oc3cc2cc(c3O[C@@H]2O[C@H](CO)[C@@H](O)[C@H](O)[C@H]2O[C@H]2C[C@](C)(N)[C@H](O)[C@H](C)O2)Oc2ccc(cc2Cl)[C@H]1O | Staphylococcus epidermidis |  | methicillin-resistant, 10 isolates | serum 25% |  | MIC50 | 2 µg/mL (≈ 1.38 µM)
CCn1cc(-c2cc(Cn3ccnc3)cc3c2CCN([C@H](c2cc(OC)ccn2)C2CC2)C3=O)c(C(F)(F)F)n1 | G-401 | cell growth, inhibitor |  | 120 h |  | EC50 | 2.45 µM
CC1=NN(c2cccc(C)c2)C(=O)C1=NNc1ccc(S(N)(=O)=O)cc1 | Saccharomyces cerevisiae |  |  | 200 µg/mL |  | glucose uptake | 44.9%
c1coc(-c2n[nH]cc2-c2ccnc3ccccc23)c1 | PTK2 (Candida albicans) | kinase binding, MIB/MS competition | Candida albicans lysate | 1 µM | reference: DMSO | log2 fold change | 0.19
O=C(/C=C/C=C/C=C/C1CCCCC1)NC1=C[C@@](O)(/C=C/C=C/C=C/C(=O)NC2=C(O)CCC2=O)[C@@H]2O[C@@H]2C1=O | LS-513 | cell growth, CellTiter-Glo |  | 78 h |  | GI50 | 15.5 µM
CC1=NN(c2ccccn2)C(=O)C1=NNc1ccc(S(N)(=O)=O)cc1 | Saccharomyces cerevisiae |  |  | 10 µg/mL |  | glucose uptake | 4.927 ± 0.000417%
OC(CCN1CCCCC1)(c1ccccc1)C1CC2C=CC1C2 (centres unmarked) |  | resting-state EEG | healthy elderly humans | oral, 4 mg, eyes closed, LS mean | reference: baseline | change, beta power, EEG O1-Pz | -12.2%
COCCc1ccc(OCC(O)CNC(C)C)cc1 (centres unmarked) | H+/organic cation antiporter | cell uptake | hCMEC/D3 |  |  | Km | 124 µM
O=C(O)CCc1cn2cccnc2n1 | USP13 ZnF-UBD domain |  |  |  |  | Kd | 833 µM
Cc1nc2n(c(=O)c1CCN1CCC(c3noc4cc(F)ccc34)CC1)CCCC2 | H+/organic cation antiporter | cell uptake | hCMEC/D3 |  |  | Km | 92.1 µM

Structure (SMILES) | tested on | test | test system | setting | scale | endpoint | value
CC1=NN(c2ccc(F)cc2)C(=O)C1=NNc1ccc(S(N)(=O)=O)cc1 | Saccharomyces cerevisiae |  |  | 50 µg/mL |  | glucose uptake | 33.6%
CCn1cc(-c2cc(Cn3ccoc3=N)cc3c2CCN([C@@H](C)c2cc(OC)ccn2)C3=O)c(C(F)(F)F)n1 | RERF-LC-AI | cell growth, inhibitor |  | 120 h |  | EC50 | 1.5 µM
CC(C)NCC(O)c1ccc(O)c(O)c1 (centres unmarked) |  |  | ventricular cardiomyocytes, C57BL/6 mouse | dose not given, 0.624 s |  | sarcomere length | 1.72 µm
CC(C)C[C@H](NC(=O)C[C@H](O)[C@H](CC(C)C)NC(=O)[C@H](Cc1c[nH]cn1)NC(=O)CNC(=O)[C@@H](NC(=O)[C@H](C)NC(=O)[C@H](Cc1c[nH]c2ccccc12)NC(=O)[C@H](CCC(N)=O)NC(=O)[C@@H](Cc1ccccc1)NC(=O)COCCOCCNC(=O)CCC(C(=O)O)N1CCN(CC(=O)O)CCN(CC(=O)O)CCN(CC(=O)O)CC1)C(C)C)C(N)=O (some centres unmarked) [lutetium-177 labelled] |  |  | female BALB/c nu/nu mice, intestines | intravenous, 50 pmol, 1 h |  | tissue uptake | 1.4 ± 0.5 %ID/g
CC(C)NCC(O)COc1ccc(COCCOC(C)C)cc1 (centres unmarked) | H+/organic cation antiporter | cell uptake | hCMEC/D3 |  |  | Vmax | 1220 pmol/min/mg protein
O=C(O)CNC(=O)Cc1ccccc1 |  |  | ventricular cardiomyocytes, C57BL/6 mouse | dose not given, 0.836 s |  | sarcomere length | 1.64 µm
CN1CCC[C@@H]1CCO[C@](C)(c1ccccc1)c1ccc(Cl)cc1 | H+/organic cation antiporter | cell uptake | hCMEC/D3 |  |  | Vmax | 2700 pmol/min/mg protein
CC1=NNC(=O)C1=NNc1ccc(S(N)(=O)=O)cc1 | Saccharomyces cerevisiae |  |  | 100 µg/mL |  | glucose uptake | 46.4%
O=C(O)CSc1nnc(NC(=O)COc2ccccc2)s1 | USP13 ZnF-UBD domain |  |  |  |  | Kd | 745 µM
Oc1ccccc1-c1n[nH]cc1-c1ccnc2ccccc12 | RIO2 (Candida albicans) | kinase binding, MIB/MS competition | Candida albicans lysate | 10 µM | reference: DMSO | log2 fold change | 0.36
CCCOC(C(=O)OC1CCN(C)CC1)(c1ccccc1)c1ccccc1 | H+/organic cation antiporter | cell uptake | hCMEC/D3 |  |  | Vmax | 2680 pmol/min/mg protein
CC[C@@H]1[C@H](F)C(=O)N[C@@H]1COc1nccc2cc(C(N)=O)c(OC)cc12 | Ribosomal protein S6 kinase alpha-2 (RPS6KA2, Homo sapiens, UniProt Q15349) | ATP probe binding, KiNativ profiling, item: RSK3 Lys2 probe site | THP-1 cell lysate |  |  | IC50 | > 5 µM
CC[S+]([O-])c1nc(-c2ccccc2)cc(C(F)(F)F)n1 (centres unmarked) | importin alpha/beta-1 | cMyc nuclear import, high content imaging | HeLa Kyoto reporter | 0.05 µM, 2 h |  | cells with nuclear reporter | 78.7% and 85.8% and 73.4% and 89.7%
CCCCNc1ccc(C(=O)OCCN(C)C)cc1 | H+/organic cation antiporter | cell uptake | hCMEC/D3 |  |  | Km | 123 µM
COc1cnc2cccc(N3CCc4c(cc(Cn5ccnc5C)cc4-c4cn(C)nc4C(F)(F)F)C3=O)c2c1 | NCI-H2228 | cell growth, inhibitor |  | 120 h |  | EC50 | > 30 µM
CC1=NN(c2ccccc2)C(=O)C1=NNc1ccc(S(N)(=O)=O)cc1 | Saccharomyces cerevisiae |  |  | 500 µg/mL |  | glucose uptake | 28.3%

Excerpt of the above:
Structure (SMILES) | tested on | test | test system | setting | scale | endpoint | value
CCCCN1CCCC[C@H]1C(=O)Nc1c(C)cccc1C | H+/organic cation antiporter | cell uptake | hCMEC/D3 |  |  | Vmax | 637 pmol/min/mg protein
Oc1ccccc1-c1n[nH]cc1-c1ccnc2ccccc12 | RIO2 (Candida albicans) | kinase binding, MIB/MS competition | Candida albicans lysate | 10 µM | reference: DMSO | log2 fold change | 0.36
